{"data": "Measured values collected from several papers", "note": "A part holds a random share of what one study measured. Substitutions count along the parent as printed."}
{"data": "Study 1", "target": "CCNA2, cyclin fold, Cln2 fusion (human)", "technique": "yeast growth competition, sequencing", "matrix": "yeast", "setting": "strong parent motif", "reference": "not given", "direction": "higher = stronger binding", "starting sequence": "GMNC docking peptide (human); KNAKRNLSSEFAN; partner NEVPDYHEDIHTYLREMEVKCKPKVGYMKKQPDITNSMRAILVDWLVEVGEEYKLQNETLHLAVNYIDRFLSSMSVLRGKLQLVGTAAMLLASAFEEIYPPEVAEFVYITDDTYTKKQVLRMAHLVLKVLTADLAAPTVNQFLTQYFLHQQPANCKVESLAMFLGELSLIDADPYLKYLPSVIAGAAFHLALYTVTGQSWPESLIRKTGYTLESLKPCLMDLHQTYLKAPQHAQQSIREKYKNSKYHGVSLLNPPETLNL"}
{"Variant": "A3G", "normalised enrichment score": 1.52}
{"Variant": "A3P", "normalised enrichment score": 3.08}
{"Variant": "L7W", "normalised enrichment score": 0.427}
{"Variant": "S9R", "normalised enrichment score": 6.26}
{"Variant": "N6K", "normalised enrichment score": 2.81}
{"Variant": "N2H", "normalised enrichment score": 5.26}
{"Variant": "N6P", "normalised enrichment score": 0.344}
{"data": "Study 2", "target": "ABI1, truncated, D143A, DHFR fusion (Arabidopsis thaliana)", "technique": "DHFR PCA, deep sequencing", "matrix": "yeast", "setting": "methotrexate growth selection, single substitutions", "with": "(+)-ABA 0.032 µM", "reference": "wild-type fitted maximum", "direction": "higher = stronger binding", "starting sequence": "PYL1, truncated, DHFR fusion (Arabidopsis thaliana); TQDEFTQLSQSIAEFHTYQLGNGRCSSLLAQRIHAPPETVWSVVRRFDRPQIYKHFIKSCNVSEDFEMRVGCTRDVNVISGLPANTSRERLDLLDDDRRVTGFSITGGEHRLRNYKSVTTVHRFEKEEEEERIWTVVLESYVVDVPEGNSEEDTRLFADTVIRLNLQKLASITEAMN"}
{"Variant": "T173I", "relative binding score": "1.7%"}
{"Variant": "F66M", "relative binding score": "-2.39%"}
{"Variant": "I57R", "relative binding score": "-2.06%"}
{"Variant": "T73S", "relative binding score": "2.76%"}
{"Variant": "F47W", "relative binding score": "-2.94%"}
{"Variant": "E14R", "relative binding score": "3.86%"}
{"data": "Study 3", "target": "PABPC1L2, full length, GST fusion (mouse, UniProt A0ABA7IW68)", "technique": "RNAcompete", "molecule type": "RNA", "matrix": "in vitro", "concentration": "20 nM", "setting": "7-mer, probes averaged, single round", "reference": "mean of 7-mers", "direction": "higher = stronger binding", "Residues (chain)": "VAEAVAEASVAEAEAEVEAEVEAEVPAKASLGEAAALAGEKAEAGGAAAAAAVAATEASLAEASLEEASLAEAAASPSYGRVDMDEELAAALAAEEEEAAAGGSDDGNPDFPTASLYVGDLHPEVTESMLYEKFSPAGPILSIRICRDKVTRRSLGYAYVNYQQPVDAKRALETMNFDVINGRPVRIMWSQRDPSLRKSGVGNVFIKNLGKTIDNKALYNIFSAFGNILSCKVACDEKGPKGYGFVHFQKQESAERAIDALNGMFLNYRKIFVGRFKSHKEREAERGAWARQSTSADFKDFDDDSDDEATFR"}
{"Sequence": "ACUUGCC", "7-mer Z-score": -0.137}
{"Sequence": "UACCAAG", "7-mer Z-score": -0.0409}
{"Sequence": "CACUGAA", "7-mer Z-score": -0.0464}
{"Sequence": "GGGUUCG", "7-mer Z-score": -0.101}
{"Sequence": "GGGCUGC", "7-mer Z-score": 0.149}
{"Sequence": "UCUGUUC", "7-mer Z-score": -0.364}
{"data": "Single results of other studies"}
{"Substance": "PhoQ, residues 284 288 289 292 302 303 MLMVEA", "target": "PhoP, residues 12 14 15 18 19 IFFTR (Escherichia coli, UniProt P23836)", "assay": "Sort-seq, item: YFP reporter", "test system": "E. coli", "setting": "PhoQ-PhoP variant library, with: 10 µM Mg2+", "scale": "reference: high Mg2+ state, higher = stronger signaling", "endpoint": "fold induction", "value": 0.819}
{"note": "Some of these lines once more (study 3):"}
{"Sequence": "UACCAAG", "7-mer Z-score": -0.0409}
{"Sequence": "ACUUGCC", "7-mer Z-score": -0.137}
{"Sequence": "CACUGAA", "7-mer Z-score": -0.0464}
